# Published values collected from several papers.
# Values joined by “and” are separate records of one study, mostly repeats; a detail may differ. ± gives the spread as reported.
# UniProt Q9HCG7, sequence (whole entry, looked up): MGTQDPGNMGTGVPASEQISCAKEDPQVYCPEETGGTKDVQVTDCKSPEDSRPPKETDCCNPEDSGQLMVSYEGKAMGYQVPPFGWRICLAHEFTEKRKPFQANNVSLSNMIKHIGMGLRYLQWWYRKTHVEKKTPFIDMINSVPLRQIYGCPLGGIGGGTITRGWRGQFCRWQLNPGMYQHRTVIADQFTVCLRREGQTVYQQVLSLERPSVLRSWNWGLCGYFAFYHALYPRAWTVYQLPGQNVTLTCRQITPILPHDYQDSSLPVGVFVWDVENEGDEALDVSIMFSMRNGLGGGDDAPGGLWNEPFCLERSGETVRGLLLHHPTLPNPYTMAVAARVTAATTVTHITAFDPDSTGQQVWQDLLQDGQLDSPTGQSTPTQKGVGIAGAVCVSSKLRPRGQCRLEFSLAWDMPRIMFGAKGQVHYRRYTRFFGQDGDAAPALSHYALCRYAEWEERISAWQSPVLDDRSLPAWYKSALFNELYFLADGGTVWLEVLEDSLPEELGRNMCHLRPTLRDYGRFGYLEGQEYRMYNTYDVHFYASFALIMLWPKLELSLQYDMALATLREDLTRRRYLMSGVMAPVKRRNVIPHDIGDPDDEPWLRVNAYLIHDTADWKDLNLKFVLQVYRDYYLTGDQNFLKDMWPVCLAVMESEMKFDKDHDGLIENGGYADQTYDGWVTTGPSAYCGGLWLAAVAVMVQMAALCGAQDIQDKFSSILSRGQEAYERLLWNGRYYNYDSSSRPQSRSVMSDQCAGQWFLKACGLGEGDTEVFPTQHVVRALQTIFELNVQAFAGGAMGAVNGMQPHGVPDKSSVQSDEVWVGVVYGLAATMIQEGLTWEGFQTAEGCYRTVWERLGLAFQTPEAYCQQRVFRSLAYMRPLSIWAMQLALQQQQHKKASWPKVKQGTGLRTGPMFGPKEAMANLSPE
# UniProt O14757, sequence (whole entry, looked up): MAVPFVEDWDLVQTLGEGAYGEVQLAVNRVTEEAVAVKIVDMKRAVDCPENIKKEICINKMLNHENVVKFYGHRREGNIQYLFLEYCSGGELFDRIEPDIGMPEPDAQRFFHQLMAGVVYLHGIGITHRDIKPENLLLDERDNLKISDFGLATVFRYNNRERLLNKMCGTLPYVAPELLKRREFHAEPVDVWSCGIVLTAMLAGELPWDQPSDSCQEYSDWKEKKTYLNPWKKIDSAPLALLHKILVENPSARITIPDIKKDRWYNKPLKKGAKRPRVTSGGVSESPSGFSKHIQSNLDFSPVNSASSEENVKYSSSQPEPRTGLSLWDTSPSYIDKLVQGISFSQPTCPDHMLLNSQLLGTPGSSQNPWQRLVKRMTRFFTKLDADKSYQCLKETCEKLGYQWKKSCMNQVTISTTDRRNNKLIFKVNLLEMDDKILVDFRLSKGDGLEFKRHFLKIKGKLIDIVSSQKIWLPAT
SMILES,tested on,test,system,setting,scale,endpoint,value
CN1CCCNC(=O)c2cccc(c2)C(=O)NCCCN(C)CCCNc2cccc3c2C(=O)c2cccc(c2C3=O)NCCC1,SAS,"cell growth or viability, CCK-8",,"0.15 µM, 48 h",,viability,80.3%
COc1cc(N2CCN(C(=O)C3CCCN3)CC2)ccc1Nc1ncc(Cl)c(Nc2ccccc2P(C)(C)=O)n1 (stereo not drawn),NCI-H3122,"cell growth or viability, CCK-8",,"50 nM, 48 h",,viability,36% and 41%
OB(O)c1ccc(C(F)(F)F)s1,HFF-1,"cell growth or viability, resazurin",,48 h,,CC50,> 100 µM
N#Cc1ccc(Nc2nc(N)cc(Oc3c(F)cc(-c4cccc(C#N)c4)cc3F)n2)cc1,MT4 uninfected,,,,,CC50,7.58 ± 1.03 µM
OCCn1nc(-c2ccccc2)c2c(Cl)c(-c3ccccc3)nnc21,MDCK (wild-type),,,"10 µM, 1 h, pH 7.4",,Papp (A to B),280 nm/s
CCN(CC)CC1=C/C(=N/c2ccnc3cc(Cl)ccc23)C=CC1=O,human primary hepatocytes pooled,"cytotoxicity, resazurin reduction",,"2 h, without dicoumarol",,IC50,27 µM
OC[C@H]1[C@@H](O)[C@H](O)[C@@H](O)CN1CCCCCOCC1CCCCC1,"Beta-glucosidase (GBA2, Homo sapiens, UniProt Q9HCG7)","inhibitor, 4MU-β-D-glucopyranoside",HEK293T homogenates overexpressing GBA2,,,IC50,0.006 µM
N=C(N)NCCC[C@@H]1NC(=O)[C@H](CCCNC(=N)N)NC(=O)[C@@H](C(c2ccccc2)c2ccccc2)NC(=O)[C@H](Cc2c[nH]c3ccccc23)NC(=O)[C@@H](C(c2ccccc2)c2ccccc2)NC(=O)[C@@H](CCCNC(=N)N)NC(=O)[C@@H](CCCNC(=N)N)NC1=O,HEKa,"cell growth or viability, MTS",,"200 µg/mL, 24 h",,viability,64 to 69%
Cc1nn(-c2cccc(N)c2)c(=O)c2cnc(Nc3ccc(N4CCNCC4)cc3)nc12,"Serine/threonine-protein kinase Chk1 (CHEK1, Homo sapiens, UniProt O14757)","enzyme activity, inhibitor",,,,IC50,> 10 µM
COc1ccc(Cn2c(=O)n(O)c(=O)c3ccccc32)cc1,MDCK,,Caco-2,10 µM,,efflux ratio,0.084
Cc1cc(Cl)cc(-c2ccnc3cc(CN4C(=O)C5C(C4=O)C5(C)C)sc23)c1C[C@@H]1CNCCO1 (stereo partly drawn),CHP-212,SRB,,"0.3125 µM, single replicate",,viability,50.1% and 82.6% and 61.6%
O=c1c2sccc2n(CC2COc3ccccc3O2)c(=O)n1O (stereo not drawn),MDCK,,Caco-2,10 µM,,Papp B→A,122 nm/s
N=C(N)NCCC[C@@H]1NC(=O)[C@H](CCCNC(=N)N)NC(=O)[C@@H](Cc2ccc3ccccc3c2)NC(=O)[C@H](Cc2c[nH]c3ccccc23)NC(=O)[C@@H](Cc2ccc3ccccc3c2)NC(=O)[C@@H](CCCNC(=N)N)NC(=O)[C@@H](CCCNC(=N)N)NC1=O,HEKa,"cell growth or viability, MTS",,"200 µg/mL, 24 h",,viability,47 to 50%
COc1ccc(Cn2cc(CO[C@@H]3O[C@H]4[C@H](OC[C@H]4O)[C@H]3N=[N+]=[N-])nn2)cc1,CAL-51,"cytotoxicity, CellTiter-Glo",,"up to 30 µM, 72 h",,viability,not toxic
CNS(=O)(=O)Nc1nccc(Cc2c(C)c3ccc(Oc4ncccc4F)cc3oc2=O)c1F,HCC1143,cell viability,,7 days,,IC50,> 1 µM
O=CCNCCOn1c(=O)n(OCCNCCO)c(=O)n(OCCNCCOn2c(=O)n(OCCNCCO)c(=O)n(OCCNCCO)c2=O)c1=O,HUVEC,"cell growth or viability, MTT",,24 h,,IC50,100 mg/L
CC[C@H](C)C(=O)O[C@H]1C[C@@H](C)C=C2C=C[C@H](C)[C@H](CC[C@@H]3CC=CC(=O)O3)[C@H]21,T84,MTT,,"100 µM, 24 h",,viability reduction,~50%
Cn1ccc([C@H](CCO)Nc2nc(N3CCOCC3)c3cc(-c4ccccc4)sc3n2)n1,RRCK (MDCK),,,,,Papp,410 nm/s
O=C(CCCc1cn(C[C@H]2O[C@@H]3O[C@H]4[C@H](O)[C@@H](O)[C@@H](O[C@H]5[C@H](O)[C@@H](O)[C@@H](O[C@H]6[C@H](O)[C@@H](O)[C@@H](O[C@H]7[C@H](O)[C@@H](O)[C@@H](O[C@H]8[C@H](O)[C@@H](O)[C@@H](O[C@H]2[C@H](O)[C@H]3O)O[C@@H]8Cn2cc(CCCC(=O)N[C@H]3CCOC3=O)nn2)O[C@@H]7Cn2cc(CCCC(=O)N[C@H]3CCOC3=O)nn2)O[C@@H]6Cn2cc(CCCC(=O)N[C@H]3CCOC3=O)nn2)O[C@@H]5Cn2cc(CCCC(=O)N[C@H]3CCOC3=O)nn2)O[C@@H]4Cn2cc(CCCC(=O)N[C@H]3CCOC3=O)nn2)nn1)N[C@H]1CCOC1=O,,NMR,water,20 °C,,solubility,2600 µM
Cc1ncsc1-c1ccc(C(C)NC(=O)C2CC(O)CN2C(=O)C(NC(=O)CCCCCCCCCCN2CCCC(Nc3ncc(Cl)c(Nc4ccccc4S(=O)(=O)C(C)C)n3)C2)C(C)(C)C)cc1 (stereo not drawn),22Rv1,"RNA-seq, item: PKNOX2 mRNA",,concentration not given,relative to: DMSO,log2 fold change,-2.05
C=C(NC(=O)c1csc(-c2nc3c(cc2O)-c2nc(cs2)C(=O)NC(C(C)O)C(=O)NC(=C(C)OC)c2nc(cs2)C(=O)NC2c4nc(cs4)C(=O)NC(COC(=O)c4c5c6c(cccc6n4O)COC(=O)C(OC4CC(C)(O)C(N(C)C)C(C)O4)C2OC5)c2nc-3cs2)n1)C(N)=O (stereo not drawn),human hepatocytes,item: CYP3A4,,"concentration not given, 3 days",relative to: negative control,mRNA level,< 4 fold
C=CC(=O)Nc1cccc(Cn2ncc3cnc(Nc4cnn(CCOC)c4)nc32)c1,GRK4 human,"binding, KINOMEscan",,100 nM,lower = stronger binding,percent of control,11%
Nc1ncc(-c2cc(-c3cnn(CC(F)(F)F)c3)ncc2F)nc1C(=O)NC1CNCC(F)C1 (stereo not drawn),EPHA1,KINOMEscan,,1 µM,relative to: DMSO control,remaining binding,88%
COC1CN([C@H]2CC[C@H]([C@@]3(C)Oc4c(Cl)cc(C(=O)NCc5c(SC)cc(C)[nH]c5=O)c(C)c4O3)CC2)C1,,"RNA-seq, item: ARFGEF3","human, whole blood","dose not given, 24 h",relative to: pretreatment baseline,log2 fold change,5.86
O=c1c2ccccc2n(CC2CC2)c(=O)n1O,MDCK,,Caco-2,10 µM,,efflux ratio,0.18
COc1cc(-c2cncc(-c3ccc(C4CCN(C)CC4)cc3)c2C)cc(OC)c1OC,Caco-2 (C2BBe1) monolayers,,,"5 µM, 120 min, pH 7.4",,Papp A to B,97 nm/s
O=C1NC2(CC2)COc2ncc(F)cc2[C@H]2COCCN2c2ccn3ncc1c3n2,CHL,,,"20 µg/mL, 24 h, without S9",,numerical aberrations,0%
C[C@@H]1O[C@@H](OC[C@H]2O[C@@H](Oc3c(-c4ccc(O)cc4)oc4cc(O)cc(O)c4c3=O)[C@H](O[C@@H]3O[C@@H](C)[C@H](O)[C@@H](O)[C@H]3O)[C@@H](O)[C@@H]2O)[C@H](O)[C@H](O)[C@H]1O,3T3-L1 pre-adipocytes,MTT,,"20 µM, 48 h",,viability,77.4 ± 8.26%
C=C1CN(C(=N)N)CC2Nc3c(F)cc(Br)cc3C12CCNS(=O)(=O)c1ccc(Cl)cc1.O=C(O)C(F)(F)F (stereo not drawn),MDCK,permeability,,,,Papp,21.1 ± 3.53 nm/s
O=S(=O)(NCc1ccncc1)c1ccc(C2CCCCC2)cc1,human bone marrow cells,erythroid colony formation,,14 d,,EC50,> 1 µM

# For quick reference, copied from above:
SMILES,tested on,test,system,setting,scale,endpoint,value
O=c1c2ccccc2n(CC2CC2)c(=O)n1O,MDCK,,Caco-2,10 µM,,efflux ratio,0.18
C=CC(=O)Nc1cccc(Cn2ncc3cnc(Nc4cnn(CCOC)c4)nc32)c1,GRK4 human,"binding, KINOMEscan",,100 nM,lower = stronger binding,percent of control,11%
Cc1nn(-c2cccc(N)c2)c(=O)c2cnc(Nc3ccc(N4CCNCC4)cc3)nc12,"Serine/threonine-protein kinase Chk1 (CHEK1, Homo sapiens, UniProt O14757)","enzyme activity, inhibitor",,,,IC50,> 10 µM
COC1CN([C@H]2CC[C@H]([C@@]3(C)Oc4c(Cl)cc(C(=O)NCc5c(SC)cc(C)[nH]c5=O)c(C)c4O3)CC2)C1,,"RNA-seq, item: ARFGEF3","human, whole blood","dose not given, 24 h",relative to: pretreatment baseline,log2 fold change,5.86
O=c1c2sccc2n(CC2COc3ccccc3O2)c(=O)n1O (stereo not drawn),MDCK,,Caco-2,10 µM,,Papp B→A,122 nm/s
